Experimental data gathered from unrelated publications.
Every numbered part comes from another study and shows a few of its results, in no order.

Set 1
Target: Histone acetyltransferase KAT6A, both winged helices, GST fusion (KAT6A, Homo sapiens, UniProt Q92794, residues 1-181)
Method: protein binding microarray
Form: double-stranded DNA, one strand shown
Medium: in vitro
Tested at: not given
Setting: 8-mer, flanks averaged, mean of 2 arrays, mostly near background
Relative to: not given
Reading: higher = stronger binding
Target sequence (chain): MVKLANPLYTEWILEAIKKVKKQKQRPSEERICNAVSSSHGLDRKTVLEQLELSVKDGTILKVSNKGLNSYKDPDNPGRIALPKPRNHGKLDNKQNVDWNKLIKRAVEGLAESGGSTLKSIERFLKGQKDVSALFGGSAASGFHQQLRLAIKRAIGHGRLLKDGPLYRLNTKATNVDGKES
Strand	E-score
GCTATACA	0.00987
AGTTGCCC	0.00477
CTATCATC	0.0115
AAGCTTCT	-0.0637
CCAATGGA	-0.0934
GCTTCCTA	0.0259
AGTCGAAA	-0.205
AGGACTCA	-0.115
CAGACTCA	-0.0607
GGTTAACA	0.137
CCGTGACC	0.208
AATTTCGA	-0.0124
AATTCCAC	-0.197
CGGTCCAA	0.019
TCCCGGAA	0.166
AACCGTCC	0.0345
TTGGCAAA	-0.011
CTTTAACA	0.0844
TGTACGAA	0.0423
CACGCCGA	0.209
ATTCGACC	-0.0853
ATCCTGGC	-0.146
AGCCTGCG	0.118
ACCGGTCC	0.195
AACCCCTC	-0.178

Set 2
Target: RNA binding protein fox-1 homolog 2, RRM domain, GST-SBP tag (RBFOX2, Homo sapiens, UniProt O43251-10, residues 100-194)
Method: RNA Bind-n-Seq
Form: RNA
Medium: in vitro
Tested at: 365 nM
Setting: natural RNA segment, single round, ends assumed
Relative to: no-protein control
Reading: higher = stronger binding
Shared flanks, not repeated: GGGAGUUCUACAGUCCGACGAUC … UGGAAUUCUCGGGUGCCAA
Strand	RBNS enrichment (R)
UAGUGUAGCUGAAGAGGAAGCUAUACUAUUUUCUGUUUACUGUAUUUUGCUCCCUAUUUUAUGCUUUUUAAAAAUCUUUCACAGUGACUCACUUGAUUGAGCAUAUUGAU	1.41
UAGUAAGCUUAUCCGAAGCCUACAGUGAGAAACCAUGUAGGCUUCUUGCCCGUUUCUAAUCACCAUUCUGUGUGUCUUCUGUUUUUCUUGAUUUUUUUCAAGUGUGGUAU	0.396
GGCACUACUCCGAGGGUCCCUCACUCUACAAGGUCUUUGUUAGUAUUAAAGGCCACUGUUUUGCAUGAAUGUCCCAUUUGCAUUACUUUCAUUAUUGUCAGAAUUGCUCU	1.23
AUGUAGGGUGAUGAGCACUCACAAUUGUUGACUAAAAUGCUGCUUUUAAAACAUAGGAAAGUAGAAUGGUUGAGUGCAAAUCCAUAGCACAAGAUAAAUUGAGCUAGUUA	0.654
UUAAAGGCUUUAAAACAUUAGGGAGGCAGUCUAGGGUGAUAACGAACAGGGGUUAAGUAUUAAAUACACGAAGUUACAUUUUUGUUCAUGUUUCAUUGUCCAGAAAGCAG	0.456
UAACCCCCAGCCCCUCAAAAAAAUAAGGCCUCCAGGUAUCAAGAUCUCAUAUUAGGAUUUUCUGUCCUUAAUUUUUUGAGCAAAAUCUGGAAAAUGUGAAAGCAUAUUUA	0.4
AGAUUAGGAUUAAAAUGGAUUUAAUCCAUUUUUAAGGCUGUGUGAAUUUUUCUAAACAAGAACCAUUUGCAAUAUGGAUUUCUUAGAGAUUAAACCAAUUAUAACUUAUU	0.457
CCCAGCUGCGUUUUUUUAUAGUAGAUUUUUAACAAAAAACGGGGAGAAAUAAUGCAUUUCUGUGGAUACAGUGCCCACCGCCCUCCUCCACUUGGAAACGGUAUCCUCCC	0.602

Set 3
Target: Ras GTPase-activating protein-binding protein 1, C-terminal RGG region (G3BP1, Homo sapiens, UniProt Q13283)
Chain of UniProt Q13283 (whole entry, looked up): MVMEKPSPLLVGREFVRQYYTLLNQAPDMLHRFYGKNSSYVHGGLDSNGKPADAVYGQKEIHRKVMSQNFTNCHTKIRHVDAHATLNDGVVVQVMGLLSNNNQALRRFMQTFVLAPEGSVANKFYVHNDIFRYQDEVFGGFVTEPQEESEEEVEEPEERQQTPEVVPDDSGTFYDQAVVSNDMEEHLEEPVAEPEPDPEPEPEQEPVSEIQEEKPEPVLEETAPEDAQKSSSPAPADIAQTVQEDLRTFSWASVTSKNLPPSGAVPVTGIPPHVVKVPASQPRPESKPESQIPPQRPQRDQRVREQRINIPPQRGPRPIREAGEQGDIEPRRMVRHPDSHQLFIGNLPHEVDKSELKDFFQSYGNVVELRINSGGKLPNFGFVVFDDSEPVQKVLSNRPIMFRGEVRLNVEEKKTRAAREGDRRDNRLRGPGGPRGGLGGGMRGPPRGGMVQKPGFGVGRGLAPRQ
Method: RNA Bind-n-Seq
Form: RNA
Medium: in vitro
Tested at: 1 µM
Setting: whole 134-nt RNA, ends assumed
With: 150 mM KCl
Relative to: input library
Reading: higher = stronger binding
Shared flanks, not repeated: GGGAGUUCUACAGUCCGACGAUC … UGGAAUUCUCGGGUGUCAAGG
Strand	log2 enrichment
ACCAUGCAGGUGGGCAUCUUUGGGAAGUGGGGCAAGGGGGGGAUAGGGAAAAGGGUAACACUUUGGGAACAGGUGGUCCCAGGUCGUUUC	-0.883
UGGGAGGUGGAUUUUAUUUAUUUUUUUAGCUCAUUUCCAGGGGUGGGAAUUUUUUUUUAAUAUGUGUCAUGAAUAAAGUUGUUUUUGAAA	2.78
GCAGGAAGUAAAAACAAAUGGAAAUGCUUCGGAUAGUGGCAGGGGUGGGGGUUGCUAAGGAAACGGUGGGAUGGGAGUGGGUAAAGAGUU	1.18
CUCAAGUCCUGUGCUACACAUCGUAUGUACCGAAUCGGGGUGGGGUGGGGUGGGAAAGUAUUAUGUUACGCCGUUCGGAUCUGCACUUCC	2.09
AGUCCUGUGCUACACAUCGUAUGUACCGAAUCGGGCCCCCGGCCCCCGGGCCCCCGGAAAGUAUUAUGUUACGCCGUUCGGAUCUGCACU	-1.67
ACCAUGCAGGUGGGCAUCUUUGGGAAGUGGGGCAAGGGGGGGAUAGGGAGGGGGGUAACAAUUUGGGAACAGGUGGUCCCAGGUCGUUUC	2.23
UGGCCCUGGUGGCAUGCGGGGAGGAAGAGGUGGCCUCAUGGAUCGUGGUGCUCCCGGUGGAAUGUUCAGAGGUGGCCGUGGUGGAGACAG	1.63
AAGUCCUGUGCUACACAUCGUAUGUACCGAAUCGGAAAAAGGUUUUUUUGGAAAGGAAAGUAUUAUGUUACGCCGUUCGGAUCUGCACUU	-2.5
UGGGAGGUGGAUUUUGUUUAUUUUUUUAGCUCAUUUCCAGGGGUGGGAAUUUUUUUUUAAUAUGUGUAAUGAAUAAAGUUGUUUUUGAAA	3.68

Set 4
Target: Hepatocyte nuclear factor 3-alpha (Foxa1, Mus musculus, UniProt P35582, residues 1-468, full length assumed)
Method: EMSA with sequencing
Form: double-stranded DNA, one strand shown
Medium: in vitro
Tested at: 10 and 20 nM
Setting: whole designed probe, mean of two concentrations, ends assumed
Relative to: negative control set to 0
Reading: higher = stronger binding
Shared flanks, not repeated: GTGAGCGGTGCCCATTGATGGGGAAC … TTTCACTGGGATCGTGGGGAC
Construct (chain): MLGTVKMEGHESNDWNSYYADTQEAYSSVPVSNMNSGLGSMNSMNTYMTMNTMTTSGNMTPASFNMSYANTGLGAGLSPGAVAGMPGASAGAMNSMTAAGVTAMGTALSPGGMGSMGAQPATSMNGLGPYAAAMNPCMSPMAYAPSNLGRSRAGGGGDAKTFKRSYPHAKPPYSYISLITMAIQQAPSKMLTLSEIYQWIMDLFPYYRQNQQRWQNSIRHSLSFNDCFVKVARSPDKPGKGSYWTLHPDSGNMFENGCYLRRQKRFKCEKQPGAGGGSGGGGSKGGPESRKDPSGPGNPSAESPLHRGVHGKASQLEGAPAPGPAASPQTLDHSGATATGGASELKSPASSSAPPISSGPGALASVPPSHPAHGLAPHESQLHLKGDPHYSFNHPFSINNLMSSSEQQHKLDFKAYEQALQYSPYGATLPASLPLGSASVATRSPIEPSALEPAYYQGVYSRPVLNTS
Strand	normalised bound fraction
GTCCTGATGTAGGGGACCATAAACTATGGTGGGTAACTGGCCCTTCAAAATAGCCATCAAATGGCAACACTTGCCTAAACCTTGGAGGGCATTGTAAACAGGGATCTTCTGGGTGTCACCTCAAGAATTTAAGACTTCTAAACAGGGAATATTGATCCCGCCTAAAGGGAAGAATCTTATCAGATGAGAAAAG	0.0148 ratio
ATCTAATCCATACCAAGGATTCCCATGGGGAAACTGTTATCTCTCAACTCAGTGAGGGCTATTGACAAAGACCAGTGCTCTTTCTTCTCTGTAGGTAATCTGTGACTCATGCAAGCCTGAGGGAGAAAATACAGTATATCTAAGAGTTAAGACCTCCCAGCTTCACATTCTGTTATAGCAGCTGCTTCATGCC	-0.0237 ratio
CAAGTTTGTGGTCCAGGAGCAACAGGTTATGCCATACAGCCTAGGTGTGTAGTAGGCTACACACCGTCTATGTTTGTGCCATGACTCATACAATGTTTGCACAATGATGAAATCCCATGTCACATTTCTCAGAACATACCCCTGTTGTTAAGCGATACATGACTGTACTTTTTTTAAAAAGTCCAAGGATATA	0.358 ratio
GGGGATTCTTTCATTATACAAATACATGTTATTTTTGAATTTCAAAAGAAATCATGTTATGTCAATCTATTGAGTGCTAACTAAAAGTTCTCTTTGTTTACTTAGCTTTCTCTTAGTTGTAAGAAAGAAAGAGACTTCTTGCATGAAAATAGTATGTTGCGGGAAGAAATTGCCATGCTAAGACTGGAGCTAG	0.505 ratio
ATCTTCCCCCTCTTCCTTGCCCCACCAGCTCACCTTCCCGGGTTATTTGCACAAAGGAAAATAAATAAAGCCGGCATTCGTTAACGCAGTTCACGCGCATACTGCTGTTTGCTCTGCATGAATCATGGTCCTTACGCGACGCCAGGCTCCGGGAGAGCAAAGCACCGTGTCAGGCGCATGATCCGGGCTCGCC	0.386 ratio

Set 5
Target: RING finger protein unkempt homolog, zinc fingers 1-6, GST-SBP tag (UNK, Homo sapiens, UniProt Q9C0B0, residues 30-357)
Chain of UniProt Q9C0B0 (30-357, looked up): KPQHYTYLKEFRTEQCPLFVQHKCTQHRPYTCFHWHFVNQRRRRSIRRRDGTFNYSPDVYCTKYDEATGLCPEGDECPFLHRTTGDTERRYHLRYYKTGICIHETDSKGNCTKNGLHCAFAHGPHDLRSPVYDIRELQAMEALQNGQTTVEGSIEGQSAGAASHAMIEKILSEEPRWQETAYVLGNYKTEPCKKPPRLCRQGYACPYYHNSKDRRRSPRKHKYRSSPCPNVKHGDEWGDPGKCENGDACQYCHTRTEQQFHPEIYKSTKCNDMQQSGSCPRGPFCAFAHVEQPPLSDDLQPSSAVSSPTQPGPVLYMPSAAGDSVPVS
Method: RNA Bind-n-Seq
Form: RNA
Medium: in vitro
Tested at: not given
Setting: RNA with constant flanks, human-mouse chimeric sites, ends assumed
Relative to: input RNA pool
Reading: higher = stronger binding
Shared flanks, not repeated: GGGAGUUCUACAGUCCGACGAUC … CAACAGAGGAUUGAGCAUCA
Strand	bound/input enrichment
AAAGAGUGGAUAGAAUGUGCACACGGGAUCGGUGGGACCCGGGCGAAAAAGGAGUGCAAGAUAGAGUAUGAUGAUUUCGAAGAGUGCUUGCUUCGGUACAAAACGAUGAGGCGAAUGCAU	0.712 ratio
UAAGUCCUGUGCCAGCACUUCGCUCAUAAAGUUUUAAAUUCAAGAAAAAUUGUGUUUGUUUCCUGAUUAUUGUAUCCAAUACUUUGCCUAGUAUGUAACUCACUCUUACUGAUAAUAAAA	1.36 ratio
ACCUCCCCCUCCCGCCUGCUUUUUGAACCGCUUUUUGGAAAGUUUUUGGCGUUUCUUUUUUUUAGAAAUACAAAGUGAUUACAGUUUCCCCCGCAAGGGUCUAUCGAAGGGCUUGACGGA	0.562 ratio
CUCAUGGCUGCAGAAACAGGAAGUGGCAAAACUGGUGCAUUUAGUAUUCCCGUUAUCCAGAUAGUGUAUGAAACUCUGAAAGACCAACAGGAAGGAAAGAAAGGGAAAACAACUAUUAAA	0.911 ratio
GAAUCCUACUCAGGCGGAUUUUGCAACACCAAGCUCACAGCAGCAGCAUCUUAGUCACAGUAGGGUAGCUUUAGGGCUCUGUGGCCAUGGUUUUACUCACAUGCAGGUUUGGAAAAUGUA	0.412 ratio
UUCAAAGGCUGUGUUAUUUCAUAAAUAUCAUAAGUAACUCUGGGGGAGGGAAAUUCUGUUCUUUUGUUUAAUUUUCCCCCAAAUGAAGCCAAAGUGUGUGUUGAAGAACUGAGAAAAAAU	0.216 ratio
AAAGUGAUGACUAUGUUUGUCCAACGACAGGUGUUUGCGGAGAGCAAAGAUGAGAUUGCGUUAGUCCUCUAUGGCACAGAUGGCACUGAUAAUGCCCUUGCUGGCAAGGAUCAGUAUCAG	0.242 ratio
ACCUCCCCCUCCCGCCUGCUUUUUGAACCGCUUUUUGGAAAGUUUUUGGCGUUUCUUUUCCUUCCCCAUACAAAGUGGUUUUUACCACCCCCGCAAGGGUCUAUCGAAGGGCUUGACGGA	0.49 ratio

Repeated from above (set 2):
Strand	RBNS enrichment (R)
UAGUGUAGCUGAAGAGGAAGCUAUACUAUUUUCUGUUUACUGUAUUUUGCUCCCUAUUUUAUGCUUUUUAAAAAUCUUUCACAGUGACUCACUUGAUUGAGCAUAUUGAU	1.41
UAGUAAGCUUAUCCGAAGCCUACAGUGAGAAACCAUGUAGGCUUCUUGCCCGUUUCUAAUCACCAUUCUGUGUGUCUUCUGUUUUUCUUGAUUUUUUUCAAGUGUGGUAU	0.396
GGCACUACUCCGAGGGUCCCUCACUCUACAAGGUCUUUGUUAGUAUUAAAGGCCACUGUUUUGCAUGAAUGUCCCAUUUGCAUUACUUUCAUUAUUGUCAGAAUUGCUCU	1.23
AUGUAGGGUGAUGAGCACUCACAAUUGUUGACUAAAAUGCUGCUUUUAAAACAUAGGAAAGUAGAAUGGUUGAGUGCAAAUCCAUAGCACAAGAUAAAUUGAGCUAGUUA	0.654
UUAAAGGCUUUAAAACAUUAGGGAGGCAGUCUAGGGUGAUAACGAACAGGGGUUAAGUAUUAAAUACACGAAGUUACAUUUUUGUUCAUGUUUCAUUGUCCAGAAAGCAG	0.456
UAACCCCCAGCCCCUCAAAAAAAUAAGGCCUCCAGGUAUCAAGAUCUCAUAUUAGGAUUUUCUGUCCUUAAUUUUUUGAGCAAAAUCUGGAAAAUGUGAAAGCAUAUUUA	0.4
AGAUUAGGAUUAAAAUGGAUUUAAUCCAUUUUUAAGGCUGUGUGAAUUUUUCUAAACAAGAACCAUUUGCAAUAUGGAUUUCUUAGAGAUUAAACCAAUUAUAACUUAUU	0.457
CCCAGCUGCGUUUUUUUAUAGUAGAUUUUUAACAAAAAACGGGGAGAAAUAAUGCAUUUCUGUGGAUACAGUGCCCACCGCCCUCCUCCACUUGGAAACGGUAUCCUCCC	0.602
